Results gathered from unrelated publications.
Parts stem from different laboratories: compare values within a part only.

Sample 1 — technique: RNA Bind-n-Seq; molecule type: RNA; sample: in vitro; concentration: not given; reference: input RNA pool; reading: higher = stronger binding
Target: RING finger protein unkempt homolog, zinc fingers 1-6, GST-SBP tag (UNK, Homo sapiens, UniProt Q9C0B0, residues 30-357)
Chain of UniProt Q9C0B0 (30-357, looked up): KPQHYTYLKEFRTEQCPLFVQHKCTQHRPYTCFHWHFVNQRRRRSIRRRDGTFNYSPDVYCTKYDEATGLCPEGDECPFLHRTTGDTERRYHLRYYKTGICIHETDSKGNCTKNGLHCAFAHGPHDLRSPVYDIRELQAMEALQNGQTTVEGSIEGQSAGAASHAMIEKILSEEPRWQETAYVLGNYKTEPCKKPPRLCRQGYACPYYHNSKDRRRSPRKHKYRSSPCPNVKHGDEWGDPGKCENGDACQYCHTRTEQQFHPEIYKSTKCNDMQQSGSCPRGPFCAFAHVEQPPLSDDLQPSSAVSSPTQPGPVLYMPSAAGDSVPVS
Notes: RNA with constant flanks, human-mouse chimeric sites, ends assumed
Shared flanks, not repeated: GGGAGUUCUACAGUCCGACGAUC … CAACAGAGGAUUGAGCAUCA
`GCGGCAGAAUCAUGGAGGACAUAAUGCAGCUCCCCAAAGCGCGCGUCAACGCCAGCAUGUUACCACAGUAUAUCGACAAGCCUGUCUGCUUCGUGGGGAAGCUGGAAAAGAUUCAUCCCA` has a bound/input enrichment of 0.143 ratio.
`UUGAAAACUGAUUCAAGCAAGUUUGAAUAUCACAAUGUUAGCUUUCUAAUUCCAUAAAAGUACUUGGUUUUUACAGUAACCCCACAUACAUCACCCCAGCGCCAUUUGUAAAGAGCAACU` has a bound/input enrichment of 0.978 ratio.
The bound/input enrichment of `GCUCCUCCCCGCUCUGCAGCCUGGGGACUUUUGGCAAGGACCAGAAUCCAGCUUUCUUUUAAAACUCUCAGUGUAACUGUAUCCCGUGACAUUUCAUUUUUUUUUUAUAGUGUAUUUUUU` is reported as 15.4 ratio.
For `GAAUCCUACUCAGGCGGUCCCACAACAACCAAGCUCACAGCAGCAGCAUCUUAGUCACAGUAGGGUAGUUUUGGGGCUCUGUGGCCAGGGUUUUAUUCACAUGCAGGUUUUGAAAAUGUA`, the bound/input enrichment was 0.865 ratio.
For `UUAAUCCCCUUUACUGCUCCCCCACUUGUCAUGCUGAUAACAAAGUCUUAUAUCCCCGUCCUAGCUUUCACUCAGAUGGCUUAUGGAGCCGGUUUCCUAUCUUUCUUGGGAGGGAUCAGA`, the bound/input enrichment was 0.173 ratio.
For `CCAAUUGUGGAGCAGUACUUGAAGACAAAGAAAAAUUCUAAUAAUUUAAUCAUGAAAUACAUUAGCUGCCGCCUGCUGACACUCAUCGUUAUACUGUUAGCGUGUAUCUACCUGGGCUAU`, the bound/input enrichment was 0.726 ratio.
`GUACUGCAGCAGCAGGGCAAGCUGCAGGAAGCUCUGAUGCAUUAUAAGGAGGCUAUUCGAAUUAGUCCUACCUUUGCUGAUGCCUACUCUAAUAUGGGAAACACUCUAAAGGAGAUGCAG` has a bound/input enrichment of 0.228 ratio.
`ACCUCCCAGGCCUGGGACACCCCACCCCCGCUUUUUGGAAAGUUUUUGGCGUUUCUUUUCCUUCCCCAUACAAAGUGAUUACAGUUUCCCCCGCAAGGGUCUAUCGAUUCACCCUUCGGA` has a bound/input enrichment of 0.386 ratio.

Sample 2 — technique: RNA Bind-n-Seq; molecule type: RNA; sample: in vitro; concentration: 365 nM; reference: no-protein control; reading: higher = stronger binding
Target: RNA binding protein fox-1 homolog 2, RRM domain, GST-SBP tag (RBFOX2, Homo sapiens, UniProt O43251-10, residues 100-194)
Notes: natural RNA segment, single round, ends assumed
Shared flanks, not repeated: GGGAGUUCUACAGUCCGACGAUC … UGGAAUUCUCGGGUGCCAA
Target sequence (chain): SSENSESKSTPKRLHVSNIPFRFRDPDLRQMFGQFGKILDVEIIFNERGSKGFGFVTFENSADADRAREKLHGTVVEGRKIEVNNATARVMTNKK
`GGGGCUUCUGUGAGAGGCAGAGGGGGACCCUCACCAAAUCUUGGUGGAAGAGCCCAGGGGCUGGUCCCAGAACAGGCAGUCUCACAAGCACGCAGCACACUGGAGUGGAC`: “RBNS enrichment (R)” 6.17.
Under “RBNS enrichment (R)”, `UUCUUUGAUUUAUUUUGCCAAUGGCAAAAAGACAAGACCUCGUUAGCACUGAGGAUUCUUGUUCCCUUGCCUUGCCCACUGCUCCCGACCUGAAGGCUGCCAACACUCCU` is recorded as 0.452.
`CUAAUAUAAUCCAGACAGCAAUGGUGUUAGUAUUUUUGGUCUGUGUACCCACGUGCCCAUGUAUAUGUUUGUGUGUGUGUAUGUGUGAGUGUGUGUGUAUGUGUGUGUGU` — result for “RBNS enrichment (R)”: 6.9.
For `CCCGACUCCUCAGUGGAGGAGGAGCUGCGGUCCCUCUGGUGUCUGCCAUCCCCCUCCCUCCCUGGGCCCGGCCCUGGACCCGUCAGGUGCCUGUCCCCAGCCCCAACCCC`, “RBNS enrichment (R)” read 0.31.
`UGCUUUCAAUACACGAUUAGUAAUCAACUGUUUUGUAUACUUGUUUUCAGUUUUCAUUUCGACAAACAAGCACUGUAAUUAUAGCUAUUAGAAUAAAAUCUCUUAACUAU`: “RBNS enrichment (R)” 0.347.
Under “RBNS enrichment (R)”, `UCAGACACUCCUGCCUCAGUUUCUUAGAACAGUGUUGCUAUUGAUGCUUAAGAAUAAUUGCCUCUUGGGCAAGAUGAUUGGGCUCCUGGCAAAUGUUCAAUUAAAAAGUG` is recorded as 0.301.
Under “RBNS enrichment (R)”, `CACAUCUCAUCUCACCCAUCGGCUACCUGCUGUAAUAUAAGACAACAGCUUUUAAACGUGUAUAUAAUCCAUGAUUUUGGUUUGGUUCUGUUUGUUUUCCUUGGUGGUCC` is recorded as 0.627.
`GGAAUGGAACAAGCAAAGAAACUUGUGUUGGUGUCAGGUUGGUGUAGCUGGAUCACCCAAGUAGUAGCCCUUGAUCUCCUUUCAUGACGGAUAGGCUCAGUUAGUCAGGA` — result for “RBNS enrichment (R)”: 0.715.

Sample 3 — technique: protein-binding microarray; molecule type: double-stranded DNA, one strand shown; sample: in vitro; concentration: 940 nM top; notes: 60-bp whole probe; together with: salmon DNA 0.4 mg/ml; reference: random background probes; reading: higher = stronger binding; shared flanks, not repeated: GCCTAGCAC … GTCTTGATTCGCTTGACGCTGCTG
Target: Interferon regulatory factor 5, full length, phosphomimetic (IRF5, Homo sapiens, UniProt Q13568-2, residues 1-514, S451D/S453D/S456D/S462D)
`GTAGGTTTCGGTTCCGGTTAGTGCTAG`: “fitted relative affinity” 15.1 z-score.
For `TCTGTTTTCGCTTTCTTTAAGTGCTAG`, “fitted relative affinity” read 3.78 z-score.
For `GACGGACTGGACACAGGGGACGTGCTA`, “fitted relative affinity” read -0.64 z-score.
`CACGGTCTCGGACTGGGGACGTGCTAG`: “fitted relative affinity” 0.667 z-score.
`TTAGGACTGCTACTGCGTTAGTGCTAG`: “fitted relative affinity” -0.643 z-score.
`TTAGGTTTCGGGTAGCGGTTAGTGCTA`: “fitted relative affinity” 10.9 z-score.
`CACCATCTAGTTCTGCTTTGGTGCTAG`: “fitted relative affinity” 0.374 z-score.
`GACGGTATCAGTTTCGGGACGTGCTAG` — result for “fitted relative affinity”: 5.99 z-score.
`GACGGTGTCGGGTTTCGGGACGTGCTA`: “fitted relative affinity” 1.81 z-score.
`TTAGGTATCCTTCTCCTATAGTGCTAG`: “fitted relative affinity” 0.937 z-score.
`GGCGGTATCCTTATCCTGACGTGCTAG`: “fitted relative affinity” 0.216 z-score.
Under “fitted relative affinity”, `GACGAGCTCAGTCTCGAGACGTGCTAG` is recorded as 0.765 z-score.
`TTAGATATCGGATATCGATTAGTGCTA`: “fitted relative affinity” 0.173 z-score.
Under “fitted relative affinity”, `TACGGTTTCGGTATCGGGACGTGCTAG` is recorded as 12.5 z-score.
`GACGGTTTCAGACTGGAGACGTGCTAG` — result for “fitted relative affinity”: 1.32 z-score.
`TCATGTGTTACTTTCTAACTGTGCTAG` — result for “fitted relative affinity”: 0.884 z-score.
For `TTAGAGCTGGGGACTGGATTAGTGCTA`, “fitted relative affinity” read -0.13 z-score.
`TTAGATTTCAGTCTCGATTAGTGCTAG` — result for “fitted relative affinity”: 4.22 z-score.
`GACGGACTGCGTATCGGGACGTGCTAG`: “fitted relative affinity” -0.0461 z-score.

Sample 4 — technique: protein binding microarray; molecule type: double-stranded DNA, one strand shown; sample: in vitro; concentration: not given; reference: not given; reading: higher = stronger binding
Target: Histone acetyltransferase KAT6A, winged helix 2, GST fusion (KAT6A, Homo sapiens, UniProt Q92794, residues 85-181)
Notes: 8-mer, flanks averaged, mean of 2 arrays, mostly near background
Residues (chain): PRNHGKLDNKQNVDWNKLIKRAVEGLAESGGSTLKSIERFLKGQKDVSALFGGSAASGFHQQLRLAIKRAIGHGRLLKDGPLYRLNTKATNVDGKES
The E-score of `CGTACGCA` is reported as 0.0181.
`TACACTCA` gave an E-score of 0.0551.
For `TAATCGTA`, the E-score was -0.0591.
For `TATGCCCA`, the E-score was -0.0134.
For `TACTGTCA`, the E-score was -0.209.
`GCCCACGC` gave an E-score of 0.056.
With `AAGTGACC` the E-score was -0.0657.
With `ACAGGTTA` the E-score was -0.218.
For `ATTGTTTC`, the E-score was 0.1.
For `AACAGAAC`, the E-score was 0.0313.
The E-score of `ATGATCAC` is reported as 0.0125.
The E-score of `ACGCGATA` is reported as 0.00449.
`GCTTCTCA` gave an E-score of 0.0271.
For `AAGCGTCA`, the E-score was -0.0164.
`GTGGATAA` has an E-score of -0.12.
The E-score of `AAGGCGTC` is reported as -0.117.
The E-score of `AATTGGTC` is reported as 0.0745.
With `GGGCACCC` the E-score was 0.177.
For `GTCAGCTA`, the E-score was -0.0982.
`CGCTTGAG` has an E-score of 0.112.
With `CGTTGAGC` the E-score was -0.0441.
`CCTTGTAA` gave an E-score of 0.0405.
The E-score of `AGAAAAGA` is reported as -0.177.
The E-score of `AGACCACT` is reported as 0.0359.
`CAAGCCTG` has an E-score of -0.123.

Repeated from above (sample 3):
`TTAGGTTTCGGGTAGCGGTTAGTGCTA`: “fitted relative affinity” 10.9 z-score.
`CACCATCTAGTTCTGCTTTGGTGCTAG`: “fitted relative affinity” 0.374 z-score.
`GACGGTATCAGTTTCGGGACGTGCTAG` — result for “fitted relative affinity”: 5.99 z-score.
